{"data": "Results from different studies", "note": "Numbered parts are unrelated; each lists some results of a single study. Values joined by “and” are separate records of one study, mostly repeats; a detail may differ."}
{"data": "Sample 1", "Structure (SMILES)": "C[C@@H]1CN(c2ccc(-c3cc(C(=O)NCCOCCOCCOCCOCCNC(=O)/C=C/c4[nH]cc(C(=O)N[C@@H](CC(N)=O)c5ccc(F)c(Cl)c5)c4-c4ccc(Cl)cc4F)ccc3F)cc2NC(=O)c2c[nH]c(=O)cc2C(F)(F)F)C[C@H](C)N1C", "read-out": "thermal unfolding", "method": "differential scanning fluorimetry", "tested at": "5.5 µM", "direction": "higher = more unfolded", "WDR5": "WD repeat-containing protein 5 (WDR5, Homo sapiens, UniProt P61964)", "DCAF1": "DDB1- and CUL4-associated factor 1 (DCAF1, Homo sapiens, UniProt Q9Y4B6)", "UniProt Q9Y4B6, sequence (whole entry, looked up)": "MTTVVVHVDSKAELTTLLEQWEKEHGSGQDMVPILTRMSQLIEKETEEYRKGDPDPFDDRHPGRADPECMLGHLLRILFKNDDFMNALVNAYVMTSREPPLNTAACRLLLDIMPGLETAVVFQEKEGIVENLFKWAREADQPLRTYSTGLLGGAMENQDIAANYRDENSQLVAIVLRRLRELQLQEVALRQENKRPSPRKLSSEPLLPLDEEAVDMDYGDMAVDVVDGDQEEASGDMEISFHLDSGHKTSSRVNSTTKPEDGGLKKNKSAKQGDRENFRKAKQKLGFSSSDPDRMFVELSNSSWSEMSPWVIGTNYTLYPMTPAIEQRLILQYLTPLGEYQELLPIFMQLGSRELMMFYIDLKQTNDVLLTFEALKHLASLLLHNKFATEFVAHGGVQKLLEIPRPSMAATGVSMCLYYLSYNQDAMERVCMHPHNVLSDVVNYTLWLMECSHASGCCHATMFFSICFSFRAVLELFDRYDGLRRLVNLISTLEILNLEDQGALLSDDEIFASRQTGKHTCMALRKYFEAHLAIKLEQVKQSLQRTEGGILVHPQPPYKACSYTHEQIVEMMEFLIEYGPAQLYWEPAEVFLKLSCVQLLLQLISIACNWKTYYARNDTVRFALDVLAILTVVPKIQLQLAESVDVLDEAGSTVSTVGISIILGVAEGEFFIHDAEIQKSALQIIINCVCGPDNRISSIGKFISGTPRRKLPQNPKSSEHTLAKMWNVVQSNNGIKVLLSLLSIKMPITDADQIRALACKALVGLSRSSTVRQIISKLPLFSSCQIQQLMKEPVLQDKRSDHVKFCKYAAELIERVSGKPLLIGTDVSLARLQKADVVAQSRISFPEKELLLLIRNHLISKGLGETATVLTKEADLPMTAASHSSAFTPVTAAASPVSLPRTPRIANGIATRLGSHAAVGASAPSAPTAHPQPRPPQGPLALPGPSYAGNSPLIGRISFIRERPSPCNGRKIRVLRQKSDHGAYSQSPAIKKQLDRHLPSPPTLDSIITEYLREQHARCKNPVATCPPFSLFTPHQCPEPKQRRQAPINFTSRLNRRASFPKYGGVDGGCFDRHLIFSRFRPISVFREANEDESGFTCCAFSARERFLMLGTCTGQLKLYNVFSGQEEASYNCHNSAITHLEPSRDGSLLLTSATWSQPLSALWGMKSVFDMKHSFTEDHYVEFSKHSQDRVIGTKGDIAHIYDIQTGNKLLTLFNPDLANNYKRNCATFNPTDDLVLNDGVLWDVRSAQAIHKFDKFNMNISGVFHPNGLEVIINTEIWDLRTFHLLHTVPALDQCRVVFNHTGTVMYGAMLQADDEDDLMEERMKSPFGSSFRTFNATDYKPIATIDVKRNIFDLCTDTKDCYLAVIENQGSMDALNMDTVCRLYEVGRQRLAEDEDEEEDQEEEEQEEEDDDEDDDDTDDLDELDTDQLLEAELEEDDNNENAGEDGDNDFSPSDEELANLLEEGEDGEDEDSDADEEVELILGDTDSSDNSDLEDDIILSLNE"}
{"target": "WDR5", "temperature": "60.01 °C", "SYPRO Orange fluorescence": "15600 a.u."}
{"target": "DCAF1", "temperature": "52.81 °C", "SYPRO Orange fluorescence": "17700 a.u."}
{"target": "WDR5", "temperature": "94.01 °C", "SYPRO Orange fluorescence": "46400 a.u."}
{"target": "DCAF1", "temperature": "74.01 °C", "SYPRO Orange fluorescence": "51200 a.u."}
{"target": "DCAF1", "temperature": "31.6 °C", "SYPRO Orange fluorescence": "9700 a.u."}
{"target": "WDR5", "temperature": "68.61 °C", "SYPRO Orange fluorescence": "14800 a.u."}
{"target": "WDR5", "temperature": "42.6 °C", "SYPRO Orange fluorescence": "15000 a.u."}
{"target": "DCAF1", "temperature": "65.41 °C", "SYPRO Orange fluorescence": "59200 a.u."}
{"data": "Sample 2", "SMILES": "Cc1ccc(O)c(C)c1-c1cnc2[nH]c(-c3cnc(N)nc3)cc2c1C#N", "method": "KINOMEscan", "tested at": "1000 nM", "relative to": "control"}
{"target": "RAF1", "remaining binding": "6.5%"}
{"target": "CASK", "remaining binding": "8.1%"}
{"target": "CSF1R", "remaining binding": "28%"}
{"data": "Sample 3", "organism": "Arabidopsis thaliana", "strain": "Col-0", "tested at": "12.5 µg/mL", "setting": "seed germination, single repetition"}
{"SMILES": "Cc1ccc2c(c1)OC(O)(C(=O)O)C(=O)N2Cc1ccccc1 (centres unmarked)", "hypocotyl length": "2.04 cm and 2.02 cm and 2.05 cm and 2.03 cm"}
{"SMILES": "CCCN1C(=O)C(O)(C(=O)O)Oc2cc(F)ccc21 (centres unmarked)", "hypocotyl length": "1.93 cm and 1.87 cm and 1.89 cm and 1.88 cm and 1.9 cm"}
{"SMILES": "COc1ccc2c(c1)OC(O)(C(=O)O)C(=O)N2Cc1ccccc1 (centres unmarked)", "hypocotyl length": "1.82 cm and 1.83 cm and 1.87 cm and 1.85 cm"}
{"SMILES": "O=C(O)C1(O)Oc2cc(F)ccc2N(Cc2ccccc2)C1=O (centres unmarked)", "hypocotyl length": "1.31 cm and 1.35 cm and 1.3 cm and 1.29 cm and 1.32 cm"}
{"SMILES": "O=C(O)C1(O)Oc2cc(Br)ccc2N(Cc2ccccc2)C1=O (centres unmarked)", "hypocotyl length": "1.91 cm and 1.92 cm and 1.95 cm and 1.94 cm"}
{"data": "Other studies, line by line"}
{"Compound": "CCN1/C(=C/C=C2\\CCCC(/C=C/C3=[N+](CC)c4ccccc4C3(C)C)=C2NCCCCN2CCC(Nc3nc4ccccc4n3Cc3ccc(F)cc3)CC2)C(C)(C)c2ccccc21", "sample": "PBS", "tested at": "10 µM", "relative to": "Cy5", "quantity": "fluorescence quantum yield", "result": "2.5%"}
